Results of several laboratories.
Each line is one published result; not all experiments were run side by side. ± marks the error that the study gave.
NR3C1: Glucocorticoid receptor (NR3C1, Homo sapiens, UniProt P04150)

Chains of the proteins cited; added tags and fusions are not shown.
UniProt P04150, whole entry: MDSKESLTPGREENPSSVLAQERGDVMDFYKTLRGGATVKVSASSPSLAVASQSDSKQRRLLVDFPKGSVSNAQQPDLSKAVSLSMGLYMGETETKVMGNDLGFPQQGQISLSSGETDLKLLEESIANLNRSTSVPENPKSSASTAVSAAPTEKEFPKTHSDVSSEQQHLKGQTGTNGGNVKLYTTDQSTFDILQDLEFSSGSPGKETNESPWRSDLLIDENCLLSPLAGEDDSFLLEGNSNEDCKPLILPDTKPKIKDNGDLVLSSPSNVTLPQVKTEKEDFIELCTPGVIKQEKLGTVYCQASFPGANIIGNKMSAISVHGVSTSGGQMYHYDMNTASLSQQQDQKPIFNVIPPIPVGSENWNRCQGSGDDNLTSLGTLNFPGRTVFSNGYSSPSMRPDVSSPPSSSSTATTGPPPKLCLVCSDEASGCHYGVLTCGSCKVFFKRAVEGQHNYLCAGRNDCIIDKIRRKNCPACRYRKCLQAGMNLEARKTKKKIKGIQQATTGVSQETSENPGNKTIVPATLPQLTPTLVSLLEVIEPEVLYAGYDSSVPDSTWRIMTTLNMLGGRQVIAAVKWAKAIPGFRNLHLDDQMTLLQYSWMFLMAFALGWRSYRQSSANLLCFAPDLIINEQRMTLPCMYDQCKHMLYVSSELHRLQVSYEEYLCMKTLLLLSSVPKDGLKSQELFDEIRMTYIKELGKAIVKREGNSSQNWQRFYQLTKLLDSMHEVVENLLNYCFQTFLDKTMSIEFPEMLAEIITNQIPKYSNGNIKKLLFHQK
UniProt Q92831, whole entry: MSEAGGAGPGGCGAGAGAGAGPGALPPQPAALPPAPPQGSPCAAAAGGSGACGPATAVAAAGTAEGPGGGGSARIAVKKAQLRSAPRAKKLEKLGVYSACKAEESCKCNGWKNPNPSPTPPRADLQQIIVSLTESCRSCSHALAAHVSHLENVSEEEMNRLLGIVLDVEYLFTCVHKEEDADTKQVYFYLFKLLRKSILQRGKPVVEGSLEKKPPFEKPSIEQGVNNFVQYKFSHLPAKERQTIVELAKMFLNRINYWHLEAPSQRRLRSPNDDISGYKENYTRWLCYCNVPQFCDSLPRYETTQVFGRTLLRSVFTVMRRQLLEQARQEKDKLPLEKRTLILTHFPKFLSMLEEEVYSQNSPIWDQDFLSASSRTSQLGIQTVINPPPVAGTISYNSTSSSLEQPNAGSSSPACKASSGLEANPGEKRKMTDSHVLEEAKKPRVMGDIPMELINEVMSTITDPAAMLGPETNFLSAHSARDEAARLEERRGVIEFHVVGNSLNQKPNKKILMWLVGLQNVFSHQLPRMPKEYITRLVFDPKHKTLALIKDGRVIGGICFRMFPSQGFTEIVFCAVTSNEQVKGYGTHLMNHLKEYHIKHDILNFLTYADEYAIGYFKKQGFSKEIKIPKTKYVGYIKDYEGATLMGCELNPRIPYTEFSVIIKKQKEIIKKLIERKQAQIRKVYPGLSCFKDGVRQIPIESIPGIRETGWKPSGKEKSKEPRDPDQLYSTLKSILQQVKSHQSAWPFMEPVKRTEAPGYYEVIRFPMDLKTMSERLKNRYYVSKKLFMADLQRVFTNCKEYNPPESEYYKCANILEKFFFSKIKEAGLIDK
UniProt P10636, whole entry, looked up: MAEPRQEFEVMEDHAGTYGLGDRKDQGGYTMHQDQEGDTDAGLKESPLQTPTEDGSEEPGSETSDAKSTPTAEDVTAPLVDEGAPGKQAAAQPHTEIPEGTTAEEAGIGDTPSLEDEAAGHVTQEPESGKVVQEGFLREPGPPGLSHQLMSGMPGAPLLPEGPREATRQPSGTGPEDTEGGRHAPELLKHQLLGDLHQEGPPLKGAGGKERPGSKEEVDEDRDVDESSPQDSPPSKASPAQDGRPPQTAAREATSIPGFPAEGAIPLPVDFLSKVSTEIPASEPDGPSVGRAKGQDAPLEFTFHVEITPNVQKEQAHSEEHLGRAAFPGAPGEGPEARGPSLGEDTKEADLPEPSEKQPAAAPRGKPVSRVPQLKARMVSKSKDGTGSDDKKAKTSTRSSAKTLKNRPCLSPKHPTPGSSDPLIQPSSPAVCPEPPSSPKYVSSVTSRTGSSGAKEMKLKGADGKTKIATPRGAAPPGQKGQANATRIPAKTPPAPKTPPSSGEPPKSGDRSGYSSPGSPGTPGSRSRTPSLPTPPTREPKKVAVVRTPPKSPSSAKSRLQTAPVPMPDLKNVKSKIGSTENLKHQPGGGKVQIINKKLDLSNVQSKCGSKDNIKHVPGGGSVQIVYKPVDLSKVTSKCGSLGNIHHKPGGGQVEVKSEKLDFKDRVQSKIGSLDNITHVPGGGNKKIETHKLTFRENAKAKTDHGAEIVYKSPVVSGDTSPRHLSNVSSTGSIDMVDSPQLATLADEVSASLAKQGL
UniProt Q9NSY1, whole entry: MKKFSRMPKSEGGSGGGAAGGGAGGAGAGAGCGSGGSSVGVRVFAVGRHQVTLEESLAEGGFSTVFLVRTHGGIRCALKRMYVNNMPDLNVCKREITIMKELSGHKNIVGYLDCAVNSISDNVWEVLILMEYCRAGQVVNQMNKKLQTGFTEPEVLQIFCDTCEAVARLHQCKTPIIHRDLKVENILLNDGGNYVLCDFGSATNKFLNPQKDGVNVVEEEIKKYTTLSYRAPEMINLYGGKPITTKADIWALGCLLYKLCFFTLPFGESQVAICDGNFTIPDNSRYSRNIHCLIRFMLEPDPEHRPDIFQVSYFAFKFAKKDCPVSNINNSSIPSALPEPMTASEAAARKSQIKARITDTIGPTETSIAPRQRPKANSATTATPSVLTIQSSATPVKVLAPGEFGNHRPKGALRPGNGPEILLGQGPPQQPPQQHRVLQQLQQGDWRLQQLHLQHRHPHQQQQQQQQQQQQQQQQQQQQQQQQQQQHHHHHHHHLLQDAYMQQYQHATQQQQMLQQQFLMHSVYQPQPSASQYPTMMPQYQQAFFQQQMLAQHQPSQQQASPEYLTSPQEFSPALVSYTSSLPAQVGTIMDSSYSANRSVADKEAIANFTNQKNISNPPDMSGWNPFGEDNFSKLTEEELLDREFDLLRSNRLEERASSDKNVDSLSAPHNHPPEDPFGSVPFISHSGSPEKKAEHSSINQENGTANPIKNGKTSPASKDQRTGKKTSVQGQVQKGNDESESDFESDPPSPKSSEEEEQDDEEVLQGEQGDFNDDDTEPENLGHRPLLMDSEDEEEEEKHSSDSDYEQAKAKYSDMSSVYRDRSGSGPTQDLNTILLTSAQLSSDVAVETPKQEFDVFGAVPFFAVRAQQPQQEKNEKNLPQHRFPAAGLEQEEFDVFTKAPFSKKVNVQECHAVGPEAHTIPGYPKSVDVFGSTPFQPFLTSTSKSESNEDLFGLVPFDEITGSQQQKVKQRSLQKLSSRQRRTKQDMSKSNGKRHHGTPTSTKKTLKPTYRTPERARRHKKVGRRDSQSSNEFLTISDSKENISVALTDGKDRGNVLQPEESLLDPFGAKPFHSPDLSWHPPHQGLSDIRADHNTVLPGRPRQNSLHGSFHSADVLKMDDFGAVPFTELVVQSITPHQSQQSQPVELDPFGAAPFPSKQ

SMILES = c1nn(C2CCOCC2)cc1Nc1ncc2nnn(-c3ccc4cn[nH]c4c3)c2n1; target or system = HuR; test = western blot; test system = cytoplasm; setting = concentration not given; scale = reference: untreated; endpoint = protein level; value = decreased
SMILES = CC[C@@H]1C(=O)N(C)c2cnc(Nc3ccc(C(=O)NC4CCN(C)CC4)cc3OC)nc2N1C1CCCC1; target or system = KAT2B (Homo sapiens, UniProt Q92831); setting = 10 µM; endpoint = delta Tm; value = -0.12 ± 0.3 °C
SMILES = C[C@H](CCC(=O)O)[C@H]1CC[C@]2(C)[C@@H]3C(=O)C[C@H]4C(C)(C)[C@@H](O)CC[C@]4(C)[C@H]3C(=O)C[C@@]12C; target or system = NR3C1; test = nuclear translocation, agonist, enzyme fragment complementation; endpoint = EC50; value = > 9 µM
SMILES = Cc1cccc(NC(=O)c2nn(Cc3cnc[nH]3)c3c2CN(C(=O)c2ccc[nH]2)CC3)c1; target or system = IDH1 R132G AML cells; test = Hoechst/Pyronin Y staining; setting = 3 µM, 7 days; endpoint = G1-phase cells; value = 25.3 ± 2.5%
SMILES = Fc1cc(-c2ccc3c(n2)[nH]c2ccncc23)ccn1 [isotope labelled]; target or system = Microtubule-associated protein tau, paired helical filaments (MAPT, Homo sapiens, UniProt P10636); test = radioligand binding; test system = PHF tau brain homogenate; setting = 9.68 nM; scale = higher = more binding; endpoint = specific binding; value = 8.52 a.u.
SMILES = Cc1cc(C)c(CNC(=O)c2cc(-c3ccc(N4CCN(CCNC(=O)CC56CC7CC(CC(C7)C5)C6)CC4)nc3)cc3c2cnn3C(C)C)c(=O)[nH]1; target or system = sigma 2 receptor; test = radioligand binding; setting = 10 µM; endpoint = inhibition; value = 59%
SMILES = Fc1cccc(-n2cnc3c(NCc4nc5cc(Cl)ccc5[nH]4)nc(N4CCNCC4)nc32)c1; target or system = BMP2K (Homo sapiens, UniProt Q9NSY1); test = KINOMEscan competition binding; setting = 10 µM; scale = reference: control; endpoint = remaining binding; value = 68%
SMILES = O=C(Nc1cccnn1)N1CC(Oc2ccc(-c3ccccc3F)cn2)C1; test = Emax model of Ctrough concentration-response, measured: plasma LEA; test system = human, plasma; setting = oral, repeated daily dosing; endpoint = Emax; value = ~4 ng/mL
SMILES = Cc1ccc([C@H](CC(=O)O)NC(=O)Nc2c(O)c(C)cn(Cc3ccccc3Cl)c2=O)cc1; test = flow cytometry MFI; test system = LAX7R xenograft, NSG mouse, bone marrow leukemic cells; setting = intraperitoneal, 60 mg/kg, 8 h; scale = reference: PBS; endpoint = human alpha-4 level; value = decreased
SMILES = COc1cc(CC(=O)NCC(NC(=O)C(CCCNC(=O)c2cccc(I)c2)NC(=O)C(Cc2ccc(C(F)(F)P(=O)(O)O)cc2)NC(=O)c2ccc(C)c(Br)c2)C(N)=O)ccc1O (stereo not shown); target or system = mouse hepatocytes; test = Western blot; setting = 1 h, no insulin; scale = reference: vehicle; endpoint = GSK-3β phosphorylation; value = 2 fold
SMILES = CCCCCCCC(=O)OCC(COP(=O)(O)OC1C(O)C(O)C(OP(=O)(O)O)C(OP(=O)(O)O)C1O)OC(=O)CCCCCCC (stereo not shown); target or system = PLCδ1 PH-ASAP1 chimera; test = membrane binding, sedimentation; test system = LUVs without PtdSer; endpoint = Kd; value = 0.96 ± 0.15 µM
SMILES = C[C@@]12CC[C@@H]3[C@H](CCC4=CC(=O)CC[C@]43C)[C@@H]1CC[C@@H]2C(=O)COS(=O)(=O)c1ccc(Br)cc1; target or system = NR3C1; test = nuclear translocation, agonist, enzyme fragment complementation; endpoint = EC50; value = > 9 µM
SMILES = CCCCCCCCCCCCCC=C[C@@H](O)[C@H](CO[C@@H]1O[C@H](CO)[C@@H](O[C@@H]2O[C@H](CO)[C@H](O)[C@H](O[C@]3(C(=O)O)C[C@H](O)[C@@H](NC(C)=O)[C@H]([C@H](O)[C@@H](CO)O[C@]4(C(=O)O)C[C@H](O)[C@@H](NC(C)=O)[C@H]([C@H](O)[C@H](O)CO)O4)O3)[C@H]2O)[C@H](O)[C@H]1O)NC(=O)CCCCCCCCCCCCCCCCC; test system = C57BL/6 mouse, serum; setting = intravenous, dose not given, together with: α-GalCer 1 µg; endpoint = serum IL-4 level; value = inhibited
SMILES = Nc1c(C(=O)Nc2c(F)cc(F)cc2Br)sc2nc3c(cc12)CCC3; target or system = H1299; setting = concentration not given, 12 h; endpoint = GSH level; value = decreased
SMILES = CCN1CCN(Cc2ccc(NC(=O)c3ccc(C)c(Oc4ncnc5cc(OC)c(OC)cc45)c3)cc2C(F)(F)F)CC1; target or system = FLT3-ITD human; test = KINOMEscan competition binding; setting = 1.0 µM; endpoint = residual probe binding; value = 5.2%
SMILES = Cc1c(O)cc2c(c1C)O[C@](C)(CCCC(C)C)CC2; target or system = LNCaP; test system = lipid raft fractions; setting = concentration not given; endpoint = cholesterol reduction; value = ≤ 30%

A few entries again:
SMILES = CCCCCCCCCCCCCC=C[C@@H](O)[C@H](CO[C@@H]1O[C@H](CO)[C@@H](O[C@@H]2O[C@H](CO)[C@H](O)[C@H](O[C@]3(C(=O)O)C[C@H](O)[C@@H](NC(C)=O)[C@H]([C@H](O)[C@@H](CO)O[C@]4(C(=O)O)C[C@H](O)[C@@H](NC(C)=O)[C@H]([C@H](O)[C@H](O)CO)O4)O3)[C@H]2O)[C@H](O)[C@H]1O)NC(=O)CCCCCCCCCCCCCCCCC; test system = C57BL/6 mouse, serum; setting = intravenous, dose not given, together with: α-GalCer 1 µg; endpoint = serum IL-4 level; value = inhibited
SMILES = Fc1cc(-c2ccc3c(n2)[nH]c2ccncc23)ccn1 [isotope labelled]; target or system = Microtubule-associated protein tau, paired helical filaments (MAPT, Homo sapiens, UniProt P10636); test = radioligand binding; test system = PHF tau brain homogenate; setting = 9.68 nM; scale = higher = more binding; endpoint = specific binding; value = 8.52 a.u.
